Experimental data of several laboratories.
Protocols differ between the studies behind these lines.
UniProt P54760, sequence (whole entry, looked up): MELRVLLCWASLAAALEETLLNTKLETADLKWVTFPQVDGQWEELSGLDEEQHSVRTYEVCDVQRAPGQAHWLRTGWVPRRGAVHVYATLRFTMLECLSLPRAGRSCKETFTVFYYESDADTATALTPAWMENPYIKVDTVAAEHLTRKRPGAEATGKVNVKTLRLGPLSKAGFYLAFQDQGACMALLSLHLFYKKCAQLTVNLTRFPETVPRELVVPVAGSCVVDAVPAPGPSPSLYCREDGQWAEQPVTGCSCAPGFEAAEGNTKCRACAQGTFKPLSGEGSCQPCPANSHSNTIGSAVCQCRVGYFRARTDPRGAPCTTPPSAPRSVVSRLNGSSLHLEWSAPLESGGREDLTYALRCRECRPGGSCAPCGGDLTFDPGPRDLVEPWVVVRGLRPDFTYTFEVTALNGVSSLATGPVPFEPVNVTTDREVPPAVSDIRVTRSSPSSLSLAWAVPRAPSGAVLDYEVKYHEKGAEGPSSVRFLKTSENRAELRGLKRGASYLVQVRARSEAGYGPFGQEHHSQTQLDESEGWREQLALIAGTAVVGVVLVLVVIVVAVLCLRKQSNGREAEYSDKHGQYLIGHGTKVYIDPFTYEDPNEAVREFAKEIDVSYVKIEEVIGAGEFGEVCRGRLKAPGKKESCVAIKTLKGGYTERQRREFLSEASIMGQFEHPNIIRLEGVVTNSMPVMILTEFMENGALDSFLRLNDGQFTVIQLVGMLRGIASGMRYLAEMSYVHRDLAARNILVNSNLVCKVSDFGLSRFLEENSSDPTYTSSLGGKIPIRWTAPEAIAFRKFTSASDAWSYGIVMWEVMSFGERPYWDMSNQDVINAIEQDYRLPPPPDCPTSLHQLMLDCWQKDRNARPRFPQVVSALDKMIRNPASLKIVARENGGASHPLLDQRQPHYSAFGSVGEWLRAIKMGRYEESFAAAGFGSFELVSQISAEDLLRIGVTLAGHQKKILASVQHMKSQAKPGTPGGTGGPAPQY
UniProt Q8TDC3, sequence (whole entry, looked up): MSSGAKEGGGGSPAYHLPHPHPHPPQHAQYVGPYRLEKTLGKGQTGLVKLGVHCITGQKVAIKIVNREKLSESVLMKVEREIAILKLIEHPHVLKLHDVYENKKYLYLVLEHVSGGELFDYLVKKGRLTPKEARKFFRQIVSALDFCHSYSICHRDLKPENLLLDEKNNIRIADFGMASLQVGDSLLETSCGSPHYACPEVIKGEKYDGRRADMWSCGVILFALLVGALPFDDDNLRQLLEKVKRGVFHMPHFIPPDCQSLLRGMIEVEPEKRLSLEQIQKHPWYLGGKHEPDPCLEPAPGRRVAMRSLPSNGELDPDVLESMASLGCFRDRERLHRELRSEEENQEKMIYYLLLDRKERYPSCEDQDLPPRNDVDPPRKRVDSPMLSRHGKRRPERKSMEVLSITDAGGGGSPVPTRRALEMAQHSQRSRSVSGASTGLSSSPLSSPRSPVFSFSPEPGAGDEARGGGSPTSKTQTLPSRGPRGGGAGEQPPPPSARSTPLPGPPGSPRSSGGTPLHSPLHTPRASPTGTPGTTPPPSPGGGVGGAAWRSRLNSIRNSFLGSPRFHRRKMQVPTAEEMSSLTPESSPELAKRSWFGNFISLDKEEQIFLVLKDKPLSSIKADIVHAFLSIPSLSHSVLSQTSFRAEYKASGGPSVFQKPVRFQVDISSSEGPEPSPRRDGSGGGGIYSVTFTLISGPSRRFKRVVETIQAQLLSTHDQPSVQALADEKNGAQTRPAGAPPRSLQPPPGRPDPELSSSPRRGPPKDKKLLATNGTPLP
UniProt P06213, sequence (whole entry, looked up): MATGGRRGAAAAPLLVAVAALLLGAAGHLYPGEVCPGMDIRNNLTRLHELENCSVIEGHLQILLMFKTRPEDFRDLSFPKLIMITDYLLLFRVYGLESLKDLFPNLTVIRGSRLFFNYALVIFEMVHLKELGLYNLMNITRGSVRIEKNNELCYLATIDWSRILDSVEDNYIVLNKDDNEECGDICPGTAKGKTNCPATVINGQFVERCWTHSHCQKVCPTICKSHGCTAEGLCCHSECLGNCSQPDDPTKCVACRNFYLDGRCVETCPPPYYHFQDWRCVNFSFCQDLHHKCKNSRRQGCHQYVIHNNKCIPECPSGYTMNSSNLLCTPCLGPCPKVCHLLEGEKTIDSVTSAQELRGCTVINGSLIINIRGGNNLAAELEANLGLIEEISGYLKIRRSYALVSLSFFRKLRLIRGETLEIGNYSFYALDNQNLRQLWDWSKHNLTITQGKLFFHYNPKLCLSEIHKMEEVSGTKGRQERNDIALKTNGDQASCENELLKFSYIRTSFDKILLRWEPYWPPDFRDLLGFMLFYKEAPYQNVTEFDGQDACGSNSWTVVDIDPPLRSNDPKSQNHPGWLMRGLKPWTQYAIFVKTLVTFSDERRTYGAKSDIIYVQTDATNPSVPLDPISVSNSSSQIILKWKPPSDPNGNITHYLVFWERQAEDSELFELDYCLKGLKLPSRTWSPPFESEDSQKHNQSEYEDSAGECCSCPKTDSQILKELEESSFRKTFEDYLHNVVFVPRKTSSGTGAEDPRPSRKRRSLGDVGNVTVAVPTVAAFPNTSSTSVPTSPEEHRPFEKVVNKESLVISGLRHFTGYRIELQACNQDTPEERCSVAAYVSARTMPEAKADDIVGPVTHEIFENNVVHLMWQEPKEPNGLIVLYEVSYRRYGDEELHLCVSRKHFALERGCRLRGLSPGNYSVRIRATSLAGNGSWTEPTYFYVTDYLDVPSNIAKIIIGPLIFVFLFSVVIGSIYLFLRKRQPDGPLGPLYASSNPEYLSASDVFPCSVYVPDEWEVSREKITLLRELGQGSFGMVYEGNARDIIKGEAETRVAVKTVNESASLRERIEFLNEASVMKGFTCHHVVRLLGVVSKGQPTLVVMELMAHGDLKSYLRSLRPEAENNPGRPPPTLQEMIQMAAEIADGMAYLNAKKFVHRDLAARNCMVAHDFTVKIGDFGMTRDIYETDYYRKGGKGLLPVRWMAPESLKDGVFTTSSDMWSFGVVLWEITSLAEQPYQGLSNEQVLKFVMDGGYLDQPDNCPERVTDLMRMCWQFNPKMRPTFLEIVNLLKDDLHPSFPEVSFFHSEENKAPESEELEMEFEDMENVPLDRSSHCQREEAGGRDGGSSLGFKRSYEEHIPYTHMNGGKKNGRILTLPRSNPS
UniProt Q7L7X3, sequence (whole entry, looked up): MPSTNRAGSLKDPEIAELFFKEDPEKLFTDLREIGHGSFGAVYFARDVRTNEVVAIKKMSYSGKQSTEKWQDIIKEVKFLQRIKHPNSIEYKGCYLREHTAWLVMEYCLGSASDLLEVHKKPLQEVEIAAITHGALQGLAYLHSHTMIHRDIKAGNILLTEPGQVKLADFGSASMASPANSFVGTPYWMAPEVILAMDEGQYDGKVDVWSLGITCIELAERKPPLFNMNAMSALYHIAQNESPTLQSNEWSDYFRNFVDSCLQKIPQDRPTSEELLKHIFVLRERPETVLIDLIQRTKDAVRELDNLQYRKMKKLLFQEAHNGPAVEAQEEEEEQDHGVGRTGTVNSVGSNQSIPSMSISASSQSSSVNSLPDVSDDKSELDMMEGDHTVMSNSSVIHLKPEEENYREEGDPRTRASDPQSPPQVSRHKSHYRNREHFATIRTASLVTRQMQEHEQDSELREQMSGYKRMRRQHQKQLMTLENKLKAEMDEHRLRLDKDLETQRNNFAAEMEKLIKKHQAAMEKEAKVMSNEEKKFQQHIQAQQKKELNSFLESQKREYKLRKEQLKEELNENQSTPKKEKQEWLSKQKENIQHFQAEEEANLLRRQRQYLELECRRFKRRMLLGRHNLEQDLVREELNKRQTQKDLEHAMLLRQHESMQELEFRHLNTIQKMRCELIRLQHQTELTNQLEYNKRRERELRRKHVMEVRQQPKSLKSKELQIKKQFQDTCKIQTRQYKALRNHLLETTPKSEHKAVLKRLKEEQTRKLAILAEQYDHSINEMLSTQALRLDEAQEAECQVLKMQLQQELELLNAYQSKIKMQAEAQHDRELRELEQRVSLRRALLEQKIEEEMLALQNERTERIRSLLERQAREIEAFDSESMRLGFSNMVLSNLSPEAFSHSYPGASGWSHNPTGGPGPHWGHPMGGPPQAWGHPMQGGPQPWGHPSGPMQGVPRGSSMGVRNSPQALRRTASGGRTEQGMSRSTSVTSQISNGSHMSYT
UniProt Q99640, sequence (whole entry, looked up): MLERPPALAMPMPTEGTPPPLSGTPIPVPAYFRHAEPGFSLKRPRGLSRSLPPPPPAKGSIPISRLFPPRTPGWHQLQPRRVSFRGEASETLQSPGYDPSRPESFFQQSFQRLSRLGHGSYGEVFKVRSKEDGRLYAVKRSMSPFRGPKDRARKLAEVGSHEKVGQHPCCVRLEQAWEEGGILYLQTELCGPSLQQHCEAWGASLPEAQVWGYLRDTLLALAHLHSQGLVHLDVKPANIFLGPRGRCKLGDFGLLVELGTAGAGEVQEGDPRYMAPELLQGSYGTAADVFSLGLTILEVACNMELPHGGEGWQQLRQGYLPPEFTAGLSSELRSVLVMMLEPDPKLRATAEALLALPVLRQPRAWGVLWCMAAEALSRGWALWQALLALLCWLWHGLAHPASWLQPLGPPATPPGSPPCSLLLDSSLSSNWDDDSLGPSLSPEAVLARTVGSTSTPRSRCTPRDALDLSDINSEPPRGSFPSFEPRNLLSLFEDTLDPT

| Compound | target or system | test | test system | setting | scale | measurement | value |
| --- | --- | --- | --- | --- | --- | --- | --- |
| CNc1ncc2c(/C=C/C(=O)N3CCC(OC)CC3)nn(Cc3cccc(C(F)(F)F)c3)c2n1 | BRSK1 (Homo sapiens, UniProt Q8TDC3) | kinase activity, inhibitor |  | 1 µM | relative to: untreated control | remaining activity | 96% |
| COc1cc(F)ccc1-c1ncnc(Nc2cccc(C[S@](C)(=N)=O)c2)n1 | TAOK1 (Homo sapiens, UniProt Q7L7X3) | kinase activity |  | 10 µM, together with: 10 µM ATP |  | remaining activity | 83% |
| C=CC(=O)N1CCC[C@@H](n2nc(-c3ccc(Oc4ccccc4)cc3)c3c(N)ncnc32)C1 | Insulin receptor (INSR, Homo sapiens, UniProt P06213) |  |  | 0.1 µM |  | remaining activity | 160% |
| O=C(O)c1ccc(Nc2ncc3c(n2)-c2ccc(Cl)cc2C(c2c(F)cccc2F)=NC3)cc1 | Rse(h) | kinase activity |  | 1 µM |  | remaining activity | 56% |
| O=c1ccn([C@@H]2O[C@H](COP(=O)(O)OP(=O)(O)O)[C@@H](O)[C@H]2O)c(=O)[nH]1 |  | binding, MIDAS equilibrium dialysis LC-MS | A2AR-BRIL thermostabilized | concentration not given | relative to: no-protein control | log2 fold change | -0.985 |
| N[C@@H]1CC[C@@H](c2ccc(Cl)c(Cl)c2)c2ccccc21 | SLC6A3 (Homo sapiens, UniProt Q01959, F326A) | dopamine uptake |  | 0.0001 µM, 0.03333 h, F326A mutant, together with: [3H]dopamine | relative to: no inhibitor | remaining activity | 104% |
| COc1cc(-c2cncc3c2CN(C)Cc2cc(N4CCNCC4)ccc2-3)cc(OC)c1OC | ACVR1 (Homo sapiens, UniProt Q04771) | kinase activity |  | 1 µM, human enzyme, together with: ATP 10 µM | relative to: DMSO control | remaining activity | 0% |
| COc1cc(Nc2ncc3c(n2)-c2ccc(Cl)cc2C(c2c(F)cccc2OC)=NC3)ccc1C(=O)O | HCK | kinase activity |  | 1 µM |  | remaining activity | 11% |
| COc1cc(N2CCN(C)CC2)ccc1Nc1nc(N)n(C(=S)NCc2c(Cl)cccc2Cl)n1 | MARK3 (Homo sapiens, UniProt P27448) | enzyme activity |  | 10 µM | relative to: control | remaining activity | 1.4% |
| O=C(NC1CCC1)c1ccc2nc(-c3cccc(NS(=O)(=O)NCCN4CCCCC4)c3)cn2c1 | PKMYT1 (Homo sapiens, UniProt Q99640) | enzyme activity |  | 10 µM |  | remaining activity | 83% |
| Cc1cc(Nc2cc(N3CCN(C)CC3)nc(Sc3ccc(NC(=O)C4CC4)cc3)n2)[nH]n1 | EPHB4 (Homo sapiens, UniProt P54760) | kinase activity, KinaseProfiler |  | 0.03 µM, species human | relative to: control | remaining activity | 93% |
| CC[C@H](N)C(=O)O |  | binding, MIDAS equilibrium dialysis LC-MS | A2AR-BRIL thermostabilized | concentration not given | relative to: no-protein control | log2 fold change | -0.0684 |

Excerpt of the above:
| Compound | target or system | test | test system | setting | scale | measurement | value |
| --- | --- | --- | --- | --- | --- | --- | --- |
| O=C(NC1CCC1)c1ccc2nc(-c3cccc(NS(=O)(=O)NCCN4CCCCC4)c3)cn2c1 | PKMYT1 (Homo sapiens, UniProt Q99640) | enzyme activity |  | 10 µM |  | remaining activity | 83% |
